Published values of several laboratories.
Parts stem from different laboratories: compare values within a part only.
Sequence of UniProt P46095 (whole entry, looked up): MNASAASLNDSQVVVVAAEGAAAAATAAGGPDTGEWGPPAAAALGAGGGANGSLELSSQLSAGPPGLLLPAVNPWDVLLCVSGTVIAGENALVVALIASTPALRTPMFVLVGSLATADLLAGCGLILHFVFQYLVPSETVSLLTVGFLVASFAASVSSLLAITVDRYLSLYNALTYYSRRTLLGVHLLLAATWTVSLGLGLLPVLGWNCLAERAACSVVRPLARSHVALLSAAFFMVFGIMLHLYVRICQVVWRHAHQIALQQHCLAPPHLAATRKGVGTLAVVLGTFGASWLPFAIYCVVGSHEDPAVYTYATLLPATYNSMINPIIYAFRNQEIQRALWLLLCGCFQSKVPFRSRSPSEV
Sequence of UniProt P21453 (whole entry, looked up): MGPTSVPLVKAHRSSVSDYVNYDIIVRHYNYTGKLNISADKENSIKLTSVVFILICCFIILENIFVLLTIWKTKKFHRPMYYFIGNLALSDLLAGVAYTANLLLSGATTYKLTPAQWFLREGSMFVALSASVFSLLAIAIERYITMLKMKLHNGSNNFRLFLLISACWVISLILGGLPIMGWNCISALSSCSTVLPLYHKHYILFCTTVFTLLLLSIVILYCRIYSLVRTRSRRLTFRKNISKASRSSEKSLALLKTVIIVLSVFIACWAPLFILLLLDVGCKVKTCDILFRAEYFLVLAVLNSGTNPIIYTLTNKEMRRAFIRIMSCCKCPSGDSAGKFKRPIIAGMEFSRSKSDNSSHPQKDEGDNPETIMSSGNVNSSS
Sequence of UniProt Q92847 (whole entry, looked up): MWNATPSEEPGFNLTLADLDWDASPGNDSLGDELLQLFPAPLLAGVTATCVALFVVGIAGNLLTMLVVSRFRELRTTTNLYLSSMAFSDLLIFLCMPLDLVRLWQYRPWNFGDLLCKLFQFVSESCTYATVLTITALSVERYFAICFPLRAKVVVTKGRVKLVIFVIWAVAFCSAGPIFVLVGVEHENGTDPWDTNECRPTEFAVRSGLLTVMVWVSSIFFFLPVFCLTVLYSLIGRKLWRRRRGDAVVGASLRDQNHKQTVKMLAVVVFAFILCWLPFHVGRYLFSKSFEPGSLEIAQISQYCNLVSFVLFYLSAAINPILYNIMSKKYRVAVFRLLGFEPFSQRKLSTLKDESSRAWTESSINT
Sequence of UniProt Q6W5P4 (whole entry, looked up): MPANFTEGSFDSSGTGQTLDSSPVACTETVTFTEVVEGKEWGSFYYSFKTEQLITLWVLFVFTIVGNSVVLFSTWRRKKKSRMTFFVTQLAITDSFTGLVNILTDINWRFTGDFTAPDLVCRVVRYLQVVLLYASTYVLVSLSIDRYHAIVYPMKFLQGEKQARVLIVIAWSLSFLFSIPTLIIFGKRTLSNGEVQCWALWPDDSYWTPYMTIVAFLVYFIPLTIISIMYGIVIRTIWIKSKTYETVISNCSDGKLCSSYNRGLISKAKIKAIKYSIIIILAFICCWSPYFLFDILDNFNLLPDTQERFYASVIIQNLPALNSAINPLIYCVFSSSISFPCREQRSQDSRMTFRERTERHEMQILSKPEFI
Sequence of UniProt Q01726 (whole entry, looked up): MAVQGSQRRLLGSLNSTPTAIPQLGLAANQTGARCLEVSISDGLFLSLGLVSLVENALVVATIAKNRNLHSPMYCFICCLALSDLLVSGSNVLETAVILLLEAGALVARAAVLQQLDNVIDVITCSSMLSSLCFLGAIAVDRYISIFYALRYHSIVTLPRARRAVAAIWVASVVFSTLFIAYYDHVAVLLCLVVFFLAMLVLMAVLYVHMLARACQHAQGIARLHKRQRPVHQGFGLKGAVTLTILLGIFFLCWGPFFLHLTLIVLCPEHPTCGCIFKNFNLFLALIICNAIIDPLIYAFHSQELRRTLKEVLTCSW
Sequence of UniProt Q8NFN8 (whole entry, looked up): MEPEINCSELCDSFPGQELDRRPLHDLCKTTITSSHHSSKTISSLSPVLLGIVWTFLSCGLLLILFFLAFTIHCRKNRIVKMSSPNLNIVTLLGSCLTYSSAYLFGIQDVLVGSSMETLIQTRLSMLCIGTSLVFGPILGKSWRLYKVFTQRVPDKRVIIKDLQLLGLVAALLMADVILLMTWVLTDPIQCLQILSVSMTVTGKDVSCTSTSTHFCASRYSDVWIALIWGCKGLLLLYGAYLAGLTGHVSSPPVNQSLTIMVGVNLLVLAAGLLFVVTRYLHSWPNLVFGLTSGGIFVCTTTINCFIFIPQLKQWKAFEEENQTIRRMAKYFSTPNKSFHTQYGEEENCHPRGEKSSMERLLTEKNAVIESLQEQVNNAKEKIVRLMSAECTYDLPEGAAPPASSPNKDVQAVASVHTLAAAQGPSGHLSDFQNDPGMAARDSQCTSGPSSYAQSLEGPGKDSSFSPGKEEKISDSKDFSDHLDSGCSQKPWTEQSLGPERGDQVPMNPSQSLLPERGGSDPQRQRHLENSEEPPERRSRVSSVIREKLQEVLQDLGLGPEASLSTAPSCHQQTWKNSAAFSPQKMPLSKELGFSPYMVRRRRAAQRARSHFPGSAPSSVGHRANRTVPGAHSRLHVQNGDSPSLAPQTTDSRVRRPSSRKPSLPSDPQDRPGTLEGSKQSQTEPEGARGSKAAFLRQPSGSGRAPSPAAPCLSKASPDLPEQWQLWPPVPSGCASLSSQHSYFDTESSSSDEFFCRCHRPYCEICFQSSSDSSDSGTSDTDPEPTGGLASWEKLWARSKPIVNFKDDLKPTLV
Sequence of UniProt P32745 (whole entry, looked up): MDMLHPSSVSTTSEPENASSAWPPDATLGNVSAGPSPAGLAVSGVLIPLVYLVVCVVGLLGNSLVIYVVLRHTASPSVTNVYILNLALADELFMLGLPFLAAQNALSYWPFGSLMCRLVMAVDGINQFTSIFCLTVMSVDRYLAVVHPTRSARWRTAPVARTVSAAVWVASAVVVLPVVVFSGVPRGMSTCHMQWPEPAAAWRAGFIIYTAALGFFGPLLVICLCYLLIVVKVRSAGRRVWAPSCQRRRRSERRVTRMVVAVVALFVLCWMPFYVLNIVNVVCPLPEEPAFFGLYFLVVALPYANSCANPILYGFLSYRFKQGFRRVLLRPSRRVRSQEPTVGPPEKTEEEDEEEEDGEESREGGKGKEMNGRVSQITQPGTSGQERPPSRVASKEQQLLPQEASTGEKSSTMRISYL
Sequence of UniProt Q14330 (whole entry, looked up): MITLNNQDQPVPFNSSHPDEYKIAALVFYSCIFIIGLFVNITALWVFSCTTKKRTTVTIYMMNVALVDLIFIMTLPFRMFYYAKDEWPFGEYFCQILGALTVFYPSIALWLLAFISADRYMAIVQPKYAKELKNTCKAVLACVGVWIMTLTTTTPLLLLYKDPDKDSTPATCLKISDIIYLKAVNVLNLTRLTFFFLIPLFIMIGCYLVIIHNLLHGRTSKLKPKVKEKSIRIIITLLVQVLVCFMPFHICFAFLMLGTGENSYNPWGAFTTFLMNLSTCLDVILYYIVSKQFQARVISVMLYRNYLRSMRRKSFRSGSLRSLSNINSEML
Sequence of UniProt Q14831 (whole entry, looked up): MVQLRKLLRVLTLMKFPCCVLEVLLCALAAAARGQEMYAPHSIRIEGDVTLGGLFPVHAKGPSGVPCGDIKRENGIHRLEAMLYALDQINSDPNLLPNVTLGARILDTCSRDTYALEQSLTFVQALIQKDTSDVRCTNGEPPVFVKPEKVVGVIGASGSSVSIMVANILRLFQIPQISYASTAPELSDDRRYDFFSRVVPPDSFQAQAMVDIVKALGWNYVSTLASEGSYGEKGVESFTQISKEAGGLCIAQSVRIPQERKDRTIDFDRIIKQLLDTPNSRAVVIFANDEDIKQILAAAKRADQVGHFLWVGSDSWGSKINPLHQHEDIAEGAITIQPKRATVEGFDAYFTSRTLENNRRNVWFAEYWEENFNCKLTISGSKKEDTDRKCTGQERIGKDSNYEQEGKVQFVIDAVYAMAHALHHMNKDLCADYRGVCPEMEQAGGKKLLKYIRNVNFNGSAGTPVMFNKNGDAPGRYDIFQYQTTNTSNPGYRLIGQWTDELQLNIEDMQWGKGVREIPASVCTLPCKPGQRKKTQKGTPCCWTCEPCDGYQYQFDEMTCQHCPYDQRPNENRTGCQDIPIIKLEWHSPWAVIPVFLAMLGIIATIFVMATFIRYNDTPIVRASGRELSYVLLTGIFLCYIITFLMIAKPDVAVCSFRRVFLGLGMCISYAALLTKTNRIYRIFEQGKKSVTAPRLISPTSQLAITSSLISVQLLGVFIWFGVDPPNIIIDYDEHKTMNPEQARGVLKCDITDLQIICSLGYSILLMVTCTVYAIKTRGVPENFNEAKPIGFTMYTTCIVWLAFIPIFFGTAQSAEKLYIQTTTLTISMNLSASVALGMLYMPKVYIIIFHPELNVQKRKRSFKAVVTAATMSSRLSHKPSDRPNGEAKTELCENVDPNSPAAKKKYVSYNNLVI
Sequence of UniProt Q9BXC0 (whole entry, looked up): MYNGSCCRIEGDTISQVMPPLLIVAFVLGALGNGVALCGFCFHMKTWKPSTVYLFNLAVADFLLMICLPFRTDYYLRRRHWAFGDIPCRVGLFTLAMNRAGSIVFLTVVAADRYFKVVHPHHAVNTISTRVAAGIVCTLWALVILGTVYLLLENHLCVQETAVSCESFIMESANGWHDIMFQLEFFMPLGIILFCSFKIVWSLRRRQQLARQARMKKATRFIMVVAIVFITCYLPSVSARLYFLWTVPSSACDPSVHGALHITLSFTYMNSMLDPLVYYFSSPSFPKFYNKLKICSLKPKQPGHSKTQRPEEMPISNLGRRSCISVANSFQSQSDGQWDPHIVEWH

Series 1
Cell line: sample BA colorectal tumour organoid
Concentration: 1 µM
Relative to: DMSO
| Structure (SMILES) | viability |
| --- | --- |
| Cn1cc(-c2ccc3occ(-c4ccccc4-c4ccccc4)c3n2)cn1 | 115% |
| O=C(O)c1ccc(-c2coc3ncc(-c4ccccc4)cc23)cc1Cl | 119% |
| COc1cc(Nc2ccnc3ccc(Br)cc23)cc(OC)c1OC | 30.5% |
| CC(C)C(=O)Nc1n[nH]c2cc(-c3cccc(NS(=O)(=O)C4CC4)c3)ccc12 | 105% |
| CCN(CC)S(=O)(=O)Nc1cccc(-c2ccc3c(NC(=O)C4CC4)n[nH]c3c2)c1 | 56.3% |

Series 2
Structure (SMILES): CC(C)CN(C)c1nc(N)c(C(=O)N=C(N)N)nc1Cl
Observed: β-arrestin recruitment
Action: agonist
Method: PRESTO-Tango
Concentration: 10 µM
Relative to: untreated
| target | fold over basal |
| --- | --- |
| NPSR1 (Homo sapiens, UniProt Q6W5P4) | 0.84 |
| GRM7 (Homo sapiens, UniProt Q14831) | 0.84 fold |
| GPR183 (Homo sapiens, UniProt P32249) | 1.16 |
| G-protein coupled receptor 6 (Homo sapiens, UniProt P46095) | 1.17 |
| S1PR1 (Homo sapiens, UniProt P21453) | 1.3 |
| GPR18 (Homo sapiens, UniProt Q14330) | 0.79 |
| CRHR1 (Homo sapiens, UniProt P34998) | 1.52 |
| Probable G-protein coupled receptor 156 (GPR156, Homo sapiens, UniProt Q8NFN8) | 1.05 |
| C3AR1 (Homo sapiens, UniProt Q16581) | 0.83 |
| MC1R (Homo sapiens, UniProt Q01726) | 0.92 |
| GHSR (Homo sapiens, UniProt Q92847) | 1.33 fold |
| LHCGR (Homo sapiens, UniProt P22888) | 0.44 fold |
| SSTR3 (Homo sapiens, UniProt P32745) | 1.39 fold |
| HCAR1 (Homo sapiens, UniProt Q9BXC0) | 1.24 fold |

Series 3
Structure (SMILES): COc1ccc(-c2c(Nc3ccccn3)[nH]c3c(C4=CCCCC4)c(-c4ccccc4)nn3c2=O)cc1
Sample: plasma
| test | test system | setting | geometric mean concentration |
| --- | --- | --- | --- |
| item: S-adenosylmethionine | human patients | 200 mg once daily, 2 h | 13.8 ng/mL |
| item: methionine | human patients | 100 mg once daily, 0 h | 81400 ng/mL |
| item: methionine | human patients | 100 mg once daily, 6 h | 85600 ng/mL |
| item: S-adenosylmethionine | human patients | 150 mg once daily, 0 h | 15.9 ng/mL |
| LC-MS/MS, item: S-adenosylmethionine |  | oral, 200 mg twice daily, 4 h, cycle 1 day 1 | 11.1 ng/mL |
| LC-MS/MS, item: S-adenosylmethionine |  | oral, 50 mg once daily, 6 h, cycle 1 day 1 | 19.2 ng/mL |
| LC-MS/MS, item: S-adenosylmethionine |  | oral, 50 mg once daily, 4 h, cycle 1 day 1 | 21 ng/mL |
| LC-MS/MS, item: S-adenosylmethionine |  | oral, 200 mg twice daily, 0 h, cycle 1 day 1 | 10.4 ng/mL |
| item: methionine | human patients | 400 mg once daily, 6 h | 78600 ng/mL |
| LC-MS/MS, item: S-adenosylmethionine |  | oral, 200 mg twice daily, 8 h, cycle 1 day 1 | 11.5 ng/mL |
| LC-MS/MS, item: S-adenosylmethionine |  | oral, 50 mg once daily, 0 h, cycle 1 day 1 | 22.8 ng/mL |
| item: S-adenosylmethionine | human patients | 150 mg once daily, 8 h | 18 ng/mL |
| item: methionine | human patients | 400 mg once daily, 0 h | 73500 ng/mL |
| item: S-adenosylmethionine | human patients | 200 mg once daily, 8 h | 15.2 ng/mL |
| item: methionine | human patients | 150 mg once daily, 0 h | 128000 ng/mL |
| LC-MS/MS, item: S-adenosylmethionine |  | oral, 50 mg once daily, 8 h, cycle 1 day 1 | 23.2 ng/mL |

Series 4
Cell line: A-375
Concentration: 100 µM
Time: 36 h
| SMILES | viability [%] |
| --- | --- |
| CCCN(CCC)C(=O)C(CCC(=O)O)NC(=O)c1ccccc1 (stereo not drawn) | 101 |
| CC(C)(C)C(=O)OCOP(=O)(COCCn1cnc2c(N)ncnc21)OCOC(=O)C(C)(C)C | 17.3 |
| O=C(O)CCCc1ccccc1 | 122 |
| CC1(C)C[C@@H]1C(=O)N/C(=C\CCCCSC[C@H](N)C(=O)O)C(=O)O | 108 |
| CCN(CC)CCNC(=O)c1ccc(N)cc1 | 111 |
| Cc1ccnc(NS(=O)(=O)c2ccc(N)cc2)n1 | 114 |
| CNC(=O)c1c(C)oc2cc(Oc3ncnc4cc(OC)c(OC)cc34)ccc12 | 102 |
| C#CC1(O)CC[C@H]2[C@@H]3CCC4=CC(=O)CC[C@@H]4[C@H]3CC[C@@]21CC (stereo partly drawn) | 50.2 |
| NS(=O)(=O)c1cc2c(cc1Cl)NC(C(Cl)Cl)NS2(=O)=O (stereo not drawn) | 121 |
| CC(C)NCC(O)COc1cccc2[nH]c3ccccc3c12 (stereo not drawn) | 4.23 |

Repeated from above (series 3):
| test | test system | setting | geometric mean concentration |
| --- | --- | --- | --- |
| item: S-adenosylmethionine | human patients | 200 mg once daily, 8 h | 15.2 ng/mL |
| LC-MS/MS, item: S-adenosylmethionine |  | oral, 200 mg twice daily, 8 h, cycle 1 day 1 | 11.5 ng/mL |
